Experimental data of several laboratories.
Every numbered part comes from another study and shows a few of its results, in no order.

Sample 1 — technique: RNA Bind-n-Seq; molecule type: RNA; medium: in vitro; tested at: 365 nM; baseline: no-protein control; direction: higher = stronger binding
Target: RNA binding protein fox-1 homolog 2, RRM domain, GST-SBP tag (RBFOX2, Homo sapiens, UniProt O43251-10, residues 100-194)
Notes: natural RNA segment, single round, ends assumed
All sequences stand within: GGGAGUUCUACAGUCCGACGAUC … UGGAAUUCUCGGGUGCCAA
Construct (chain): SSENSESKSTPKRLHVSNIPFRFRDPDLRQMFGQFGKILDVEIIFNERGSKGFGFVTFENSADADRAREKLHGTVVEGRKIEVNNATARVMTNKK
Strand | RBNS enrichment (R)
CUGUUUGCCCAAUGGAUCAUUUGUAUGUUAACCACUGUAUGUAACCAACCCUUAUCUGGCAACAUAAUUGCAGCACAAUAAUGAUUUGCAUGAUACCUUGAAAUUGGGGG | 22
AAGCUCCUUUAUCCUAUAGAUUCUAUCUUUAUGUUCAUCUGAAAUGAACUAUUCAUCAGUACUUUCUCCUCCCAUCCUAAGCUUCUCAUUUUAGGAACUGACAUGAUAAG | 0.672
UAGUUGCCAGAUCUCUACUUUUAUCCUGCAUGGGAUAAUAUAUCUGUAAAUGCAUGAGUUUGGAAACCACCCAUCAAAUAUGAAAGGCUGAUGAGACUGUUAGGAUUGAU | 9.18
UCUUUGCCUCAGGAGCUGACUCAUGCCAUAGAGAGGGGACUGUAGACCAGGCUGGGGCUGCUGCCCUCCCACACGAGGUACUGAUGGAUCCUGGUUCUAUUCUGGGUAUU | 0.338
GUCAUCGACCUGUAGCACUGGCUGCAUGGCCACUGCUGUGGUUCUGUAGAACAUCCGCCAUGCCGUCCCAGCUGGCGGAGGGGGAGCUGCCCACCUAGCUGGGUUUGGAC | 0.539
ACCCCUCCGUGCCUCAGCUUUUUCCCCACAGACACCUACCUCACAGGGGCAUUGAGAAAAAAAAAAUGAAGGCAUUUUACAGUCUCUAAACAUCUUUAAGUGCCAUGAGU | 0.658
AGGAAGAUCUGGCUCAGUCUACUAUGGGCAGGGCCCCCCACCAAGCUGAGCCGAAUGGAGACAGCUGAGCUGAGGCCUGACUUUUUCAAUAAAACAUUGUGUAGUUCUGG | 0.574
UAAAGACCAAAAACUGUGCUGGGAAGAUAUGCCCCACCUAUCUUUGGUACAUGGUAGGUGUUGUGAUGGAAAUGGAAAGCAUUGGUUAAAUGGAAUAGAGGUCUUGAUCU | 0.714

Sample 2 — technique: universal PBM; molecule type: double-stranded DNA, one strand shown; medium: in vitro; tested at: not given; direction: higher = stronger binding
Target: Sal-like protein 4, full length isoform B (SALL4, Homo sapiens, UniProt Q9UJQ4-2, residues 1-616)
Notes: 8-mer, flanks averaged, mean of replicates
Target sequence (chain): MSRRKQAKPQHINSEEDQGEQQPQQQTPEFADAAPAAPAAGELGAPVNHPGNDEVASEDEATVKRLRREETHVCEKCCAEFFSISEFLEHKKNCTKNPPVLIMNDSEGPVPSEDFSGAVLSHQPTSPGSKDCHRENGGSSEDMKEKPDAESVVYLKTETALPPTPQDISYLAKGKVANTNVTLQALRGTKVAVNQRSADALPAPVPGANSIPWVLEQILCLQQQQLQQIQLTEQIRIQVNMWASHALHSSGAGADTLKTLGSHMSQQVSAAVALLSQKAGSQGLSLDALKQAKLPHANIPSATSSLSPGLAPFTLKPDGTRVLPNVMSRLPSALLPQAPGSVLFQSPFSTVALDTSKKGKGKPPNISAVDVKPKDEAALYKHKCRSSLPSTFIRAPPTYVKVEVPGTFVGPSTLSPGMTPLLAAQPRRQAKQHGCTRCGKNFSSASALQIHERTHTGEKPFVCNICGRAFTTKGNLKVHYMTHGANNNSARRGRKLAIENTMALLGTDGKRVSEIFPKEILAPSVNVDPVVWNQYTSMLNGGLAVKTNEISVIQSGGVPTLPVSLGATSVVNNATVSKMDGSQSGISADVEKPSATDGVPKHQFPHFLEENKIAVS
Strand | E-score
CAACGCGA | -0.32
AGACTGCA | -0.0306
GGCTGCGA | -0.145
TCGGCGCA | -0.23
CACCGCGC | -0.331
TACAACTA | 0.0832
CGAAATAC | 0.171
CACTCTCA | 0.00152
ATCCGACG | -0.146

Sample 3 — technique: protein binding microarray; molecule type: double-stranded DNA, one strand shown; medium: in vitro; tested at: not given; baseline: not given; direction: higher = stronger binding
Target: Histone acetyltransferase KAT6A, winged helix 2, GST fusion (KAT6A, Homo sapiens, UniProt Q92794, residues 85-181)
Notes: 8-mer, flanks averaged, mean of 2 arrays, mostly near background
Construct (chain): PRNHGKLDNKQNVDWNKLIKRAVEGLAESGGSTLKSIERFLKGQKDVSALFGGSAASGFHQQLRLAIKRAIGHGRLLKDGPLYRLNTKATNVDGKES
Strand | E-score
GTTATGGA | -0.0326
CCGAGGAA | 0.136
CTGCATCC | 0.107
CATCTACG | -0.0899
AAAACGGG | 0.00583
AGCACAAA | 0.228
ACGCGCGT | 0.225

Mixed results
Molecule | target | test | test system | setting | how to read | endpoint | value
PhoQ, residues 284 288 289 292 302 303 AEGLLW | PhoP, residues 12 14 15 18 19 NQFFI (Escherichia coli, UniProt P23836) | Sort-seq, refers to: YFP reporter | E. coli | PhoQ-PhoP variant library, together with: 10 µM Mg2+ | baseline: high Mg2+ state, higher = stronger signaling | fold induction | 1.53

A few entries again (sample 3):
Strand | E-score
CATCTACG | -0.0899
CCGAGGAA | 0.136
AGCACAAA | 0.228
CTGCATCC | 0.107
